Results pooled from the literature.
Each numbered part is a random draw from the data of one study; scales do not carry over between parts.
Sequence of UniProt O43719 (110-370, looked up): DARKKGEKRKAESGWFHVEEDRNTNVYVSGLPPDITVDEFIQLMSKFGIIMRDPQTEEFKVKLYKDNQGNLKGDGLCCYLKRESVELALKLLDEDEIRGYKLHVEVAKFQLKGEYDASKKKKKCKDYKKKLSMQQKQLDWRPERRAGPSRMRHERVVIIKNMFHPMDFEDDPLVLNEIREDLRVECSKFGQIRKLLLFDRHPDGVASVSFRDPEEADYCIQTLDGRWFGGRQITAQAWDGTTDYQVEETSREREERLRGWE

Set 1
Target: Histone acetyltransferase KAT6A, both winged helices, GST fusion (KAT6A, Homo sapiens, UniProt Q92794, residues 1-181)
Method: protein binding microarray
Form: double-stranded DNA, one strand shown
Matrix: in vitro
Concentration: not given
Notes: 8-mer, flanks averaged, mean of 2 arrays, mostly near background
Relative to: not given
Reading: higher = stronger binding
Residues (chain): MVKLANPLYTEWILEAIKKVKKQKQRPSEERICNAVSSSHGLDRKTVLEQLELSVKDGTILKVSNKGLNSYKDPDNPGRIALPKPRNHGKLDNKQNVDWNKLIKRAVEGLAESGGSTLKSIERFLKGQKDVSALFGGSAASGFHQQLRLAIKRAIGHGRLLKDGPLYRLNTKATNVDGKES
With `CTTATCGA` the E-score was -0.0958.
The E-score of `ACCCGGCC` is reported as 0.226.
With `TTGACAAA` the E-score was -0.0523.
The E-score of `CCGTACGG` is reported as 0.384.
With `CTCGCATA` the E-score was 0.129.
The E-score of `CGTATAGC` is reported as 0.156.
For `GCTTAAGC`, the E-score was 0.18.
`ACGCTTGC` gave an E-score of 0.122.
The E-score of `GGCTGCGA` is reported as 0.0297.
With `GCCGGAGA` the E-score was 0.0954.
For `AAAATGGT`, the E-score was -0.149.
With `CGGGCACG` the E-score was 0.204.
For `ACCTGGCA`, the E-score was -0.203.
`ATTACCTA` has an E-score of -0.0402.
`CTAGGCAA` gave an E-score of -0.0898.
For `GAAATGTC`, the E-score was 0.0458.
The E-score of `CCCCGACA` is reported as 0.126.
For `ACCAGTCT`, the E-score was 0.0288.
With `AGTCAAGC` the E-score was -0.00419.
With `GGATGATA` the E-score was -0.13.
The E-score of `AAATTGAA` is reported as -0.13.
With `CTCTACAC` the E-score was -0.135.
With `CGCAAGAC` the E-score was 0.0262.
For `GTTGTGTA`, the E-score was 0.00685.
`AGGGGGAT` gave an E-score of -0.211.

Set 2
Target: Phosphate system positive regulatory protein PHO4, full length, GST-tagged (PHO4, Saccharomyces cerevisiae, UniProt P07270, residues 1-312)
Method: competition protein-binding microarray
Form: double-stranded DNA, one strand shown
Matrix: in vitro
Concentration: 2 µM
Notes: whole 60-bp probe, lowest competitor level
Together with: Cbf1 competitor, 0.05 µM
Reading: higher = stronger binding
Construct (chain): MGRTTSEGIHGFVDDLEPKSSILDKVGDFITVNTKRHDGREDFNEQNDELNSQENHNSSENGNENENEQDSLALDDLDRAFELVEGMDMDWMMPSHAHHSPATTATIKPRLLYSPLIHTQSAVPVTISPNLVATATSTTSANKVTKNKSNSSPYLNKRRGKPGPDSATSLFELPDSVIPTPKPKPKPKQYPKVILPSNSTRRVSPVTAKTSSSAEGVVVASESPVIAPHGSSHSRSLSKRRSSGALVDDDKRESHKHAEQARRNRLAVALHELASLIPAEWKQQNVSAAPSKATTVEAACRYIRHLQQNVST
The fluorescence intensity of `GGAGTTCGGGAGTTGCACGTGGCACCTGGTGACAGCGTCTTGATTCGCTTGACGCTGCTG` is reported as 14200 a.u.
For `AAGATTCCGGAGTCCCTCGTGAGGAAATTTTTATTAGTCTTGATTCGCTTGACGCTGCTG`, the fluorescence intensity was 6430 a.u.
With `CGGGGTTAAGTTTGACTAGTGGGTGGCTTGCAGCAGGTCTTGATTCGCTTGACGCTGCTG` the fluorescence intensity was 4060 a.u.
`CGGGGTTAAGTTTGTACGGTGGGTGGCTTGCAGCAGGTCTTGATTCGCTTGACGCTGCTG` gave a fluorescence intensity of 5330 a.u.
`TTCGACAGCGCTAACGTTGTGACGGTAAGTGCTTTCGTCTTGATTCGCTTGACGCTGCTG` gave a fluorescence intensity of 3680 a.u.
`AAATCTGTCAGCTTGCACACGCCTTCCGGGGATAGCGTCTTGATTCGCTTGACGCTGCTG` gave a fluorescence intensity of 7710 a.u.

Set 3
Target: Sox, HMG box (Pigoraptor chileana)
Method: Spec-seq
Form: double-stranded DNA, one strand shown
Matrix: in vitro
Concentration: not given
Notes: whole probe, mean of replicates
Relative to: not given
Reading: lower = stronger binding
Constant ends, left off below: GAGTCGTCTCGTCAGCAC … CCGTAGAGCACTCAGGTC
Construct (chain): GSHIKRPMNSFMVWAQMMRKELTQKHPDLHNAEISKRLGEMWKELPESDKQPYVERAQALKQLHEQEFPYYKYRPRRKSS
Under “relative binding energy”, `CATGGAT` is recorded as 0.734 ln ratio.
`CATTCCC` — result for “relative binding energy”: 0.905 ln ratio.
For `CATTTTG`, “relative binding energy” read 0.421 ln ratio.
`CATCCGA`: “relative binding energy” 0.706 ln ratio.
`TGCTGTT`: “relative binding energy” -0.604 ln ratio.
Under “relative binding energy”, `CATTAAA` is recorded as -0.203 ln ratio.
`CATGGTC` — result for “relative binding energy”: 0.463 ln ratio.
`CATAAGG` — result for “relative binding energy”: -0.357 ln ratio.
Under “relative binding energy”, `CATGTCT` is recorded as 0.771 ln ratio.

Set 4
Target: Fragile X messenger ribonucleoprotein 1, C-terminal low-complexity region (Fmr1, Mus musculus, UniProt P35922)
Method: RNA Bind-n-Seq
Form: RNA
Matrix: in vitro
Concentration: 200 nM
Notes: whole 134-nt RNA, ends assumed
Together with: 150 mM LiCl
Relative to: input library
Reading: higher = stronger binding
Each molecule: 7-deaza-guanosine replaces G
The log2 enrichment of `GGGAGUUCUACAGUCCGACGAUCUAACUUUAGAGGAGGAUCUGAUGGAUAUGACAGUGGACGUGGAUUUGGGGAUGGCUAUAAUGGGUAUGGAGGAGGACCUGGAGGUGGCAAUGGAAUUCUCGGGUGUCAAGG` is reported as 0.589.
The log2 enrichment of `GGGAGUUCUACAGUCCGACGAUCCACAGACAACACGCACCCAGACAGACACAGAGGGAAGGGGUUGGGAUGGGGACAGGGUGCACAGCAGGGCGGGGUAGGACCCCAGCCCCUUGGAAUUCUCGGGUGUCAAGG` is reported as 0.491.
With `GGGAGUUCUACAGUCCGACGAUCCCUCAAGUCCUGUGCUACACAUCGUAUGUACCGAAUCGGGAGGGAGGAGGGGAAAGUAUUAUGUUACGCCGUUCGGAUCUGCACUUCCAGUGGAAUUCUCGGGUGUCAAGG` the log2 enrichment was -0.951.
With `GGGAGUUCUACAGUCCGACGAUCUCCUCAAGUCCUGUGCUACACAUCGUAUGUACCGAAUCGGUUUGGUGGAGGAAAGUAUUAUGUUACGCCGUUCGGAUCUGCACUUCCAGCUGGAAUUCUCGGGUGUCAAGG` the log2 enrichment was -1.62.
`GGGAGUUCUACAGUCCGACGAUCUGGGAGGUGGAUUUUGUUUAUUUUUUUAGCUCAUUUCCAGGGGUGGGAAUUUCUUUUUAAUAUGUGUCAUGAAUAAAGUUGUUUUUGAAAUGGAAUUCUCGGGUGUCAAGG` gave a log2 enrichment of -0.187.
With `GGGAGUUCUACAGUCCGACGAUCAAGUCCUGUGCUACACAUCGUAUGUACCGAAUCGGCCCCGGGCCCCGGGCCCCGGGGAAAGUAUUAUGUUACGCCGUUCGGAUCUGCACUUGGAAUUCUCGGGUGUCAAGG` the log2 enrichment was -3.03.
For `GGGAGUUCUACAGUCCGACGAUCCCUGUGCUACACAUCGUAUGUACCGAAUCGGAAAAAAAGGGAAAAAAAGGGAAAAAAAGGGAAAGUAUUAUGUUACGCCGUUCGGAUCUGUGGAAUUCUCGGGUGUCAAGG`, the log2 enrichment was -0.426.
The log2 enrichment of `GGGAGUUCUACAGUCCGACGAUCCUGUGCUACACAUCGUAUGUACCGAAUCGGGGUUUUUUUGGGGUUUUUUUGGUUUUUUUGGAAAGUAUUAUGUUACGCCGUUCGGAUCUGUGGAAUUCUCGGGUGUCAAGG` is reported as 0.834.

Mixed results
`AAAAAAAA (biotin)` has a signal ratio of 0.0775 (17S U2 SnRNP complex component HTATSF1, RRM domains 1-2 (HTATSF1, Homo sapiens, UniProt O43719, residues 110-370); protein domain microarray; RNA, in vitro; not given, poly(A) 8-mer RNA, whole probe, immobilized GST-fusion domains, most near background; relative to: GST loading signal, higher = stronger binding).
The fold induction of `PhoQ, residues 284 288 289 292 302 303 TLSLKA` is reported as 1.62 (PhoP, residues 12 14 15 18 19 IQFRS (Escherichia coli, UniProt P23836); Sort-seq, refers to: YFP reporter; E. coli; PhoQ-PhoP variant library, together with: 10 µM Mg2+; relative to: high Mg2+ state, higher = stronger signaling).

For quick reference, copied from above (set 2):
For `AAGATTCCGGAGTCCCTCGTGAGGAAATTTTTATTAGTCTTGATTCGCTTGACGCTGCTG`, the fluorescence intensity was 6430 a.u.
With `CGGGGTTAAGTTTGACTAGTGGGTGGCTTGCAGCAGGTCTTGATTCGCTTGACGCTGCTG` the fluorescence intensity was 4060 a.u.
`CGGGGTTAAGTTTGTACGGTGGGTGGCTTGCAGCAGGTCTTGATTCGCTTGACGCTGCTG` gave a fluorescence intensity of 5330 a.u.
`TTCGACAGCGCTAACGTTGTGACGGTAAGTGCTTTCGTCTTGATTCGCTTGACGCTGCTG` gave a fluorescence intensity of 3680 a.u.
